# Published values pooled from the literature.
# Protocols differ between the studies behind these lines. Values joined by “and” are separate records of one study, mostly repeats; a detail may differ. Numbers after ± are the reported error.
SMILES,test system,setting,scale,quantity,result
COc1cc([C@H]2OC[C@H]3[C@@H]2CO[C@@H]3c2ccc(O[C@@H]3O[C@H](CO)[C@@H](O)[C@H](O)[C@H]3O)c(OC)c2)ccc1O[C@@H]1O[C@H](CO)[C@@H](O)[C@H](O)[C@H]1O,"rat, plasma","oral, dose not given, dosed as combined Eu and Pc extracts",reference: single extracts,AUC(0-inf) decrease,156000 ± 152000 ng·h/mL
CCc1c(-c2ccccc2)c(-c2ccccc2)nn1-c1ccccc1-c1cccc(OCC(=O)O)c1,Sprague-Dawley rat,"intravenous, dose not given",,AUC(0-inf) observed,3310 ng·h/mL and 2410 ng·h/mL and 3120 ng·h/mL
Cc1cccc(CNC(=O)c2cn(CCNC(=O)c3ccccc3S)c3cc4c(cc3c2=O)OC(F)(F)O4)n1,"Sprague-Dawley rat, male, plasma","intravenous, 20 mg/kg of parent drug",,AUC(0-inf),1510 ± 126 ng·h/mL
C=CC(=O)N1CCC(Oc2cc3c(Nc4ccc(Cl)c(Cl)c4F)ncnc3cc2OC)CC1,"Sprague-Dawley rat male, plasma","oral, 2 mg/kg, together with: schisandrin A 20 mg/kg daily 1 weeks pretreatment",reference: no pretreatment,AUC(0-inf) ratio,0.79 fold
C1=C/COCc2cc(ccc2OCCN2CCCC2)Nc2nccc(n2)-c2cccc(c2)COC/1,"Sprague-Dawley rats, male, plasma","oral, dose not given, together with: voriconazole",reference: vehicle control,AUC(0-inf),27 % increase
Cc1cccc(CNC(=O)c2cn(CCNC(=O)c3ccccc3Sc3c([N+](=O)[O-])ncn3C)c3cc4c(cc3c2=O)OC(F)(F)O4)n1,"Sprague-Dawley rat, male, whole blood","intramuscular, 10 mg/kg",,AUC(0-inf),109 ng·h/mL
CNC(=O)c1cccc(-c2ccc(O[C@H]3O[C@H](CO)[C@@H](O)[C@H](O)[C@@H]3O)c(C)c2)c1,"Sprague-Dawley rat, male, plasma","oral, 10 mg/kg",,AUC(0-inf),16 ng·h/mL
COC(=O)C1=CO[C@@H](O[C@@H]2O[C@H](CO)[C@@H](O)[C@H](O)[C@H]2O)[C@@H]2C(CO)=CC[C@H]12,"Sprague-Dawley rat, internal jugular vein plasma","oral, dose not given, dosed as combined Eu and Pc extracts",reference: Eu extract alone,AUC(0-inf) increase,42200 ± 18600 ng·h/mL
CCc1cc(C(=O)NC)c2nccc(N3CCc4c(cc(Cn5ccnc5)cc4-c4cn(C)nc4C(F)(F)F)C3=O)c2c1,"Sprague Dawley rat, male, plasma","oral, 100 mg/kg once daily, 7 days, toxicokinetic satellite group",,AUC(0-inf),53300 ng·h/mL
CSc1ccccc1C(=O)NCCn1cc(C(=O)NCc2cccc(C)n2)c(=O)c2cc3c(cc21)OC(F)(F)O3,"Sprague-Dawley rat, male, plasma","intravenous, 5 mg/kg of parent drug",,AUC(0-inf),108 ± 7.3 ng·h/mL
O=C1CC[C@H](N2Cc3cc(N4CCN(CC5CCN(c6ccc([C@@H]7c8ccc(O)cc8CC[C@@H]7c7ccccc7)cc6)CC5)CC4)ccc3C2=O)C(=O)N1,"fasted Sprague-Dawley rat, plasma","oral, 20 mg/kg",reference: male rats,AUC(0-inf) excess female over male,84.3%
COc1cc2nccc(Oc3ccc(NC(=O)NC4CC4)c(Cl)c3)c2cc1C(N)=O,"Sprague-Dawley rats male, plasma","oral, dose not given, together with: posaconazole",reference: without posaconazole,AUC(0-inf) increase,94.3%

# Some of these lines once more:
SMILES,test system,setting,scale,quantity,result
O=C1CC[C@H](N2Cc3cc(N4CCN(CC5CCN(c6ccc([C@@H]7c8ccc(O)cc8CC[C@@H]7c7ccccc7)cc6)CC5)CC4)ccc3C2=O)C(=O)N1,"fasted Sprague-Dawley rat, plasma","oral, 20 mg/kg",reference: male rats,AUC(0-inf) excess female over male,84.3%
COc1cc2nccc(Oc3ccc(NC(=O)NC4CC4)c(Cl)c3)c2cc1C(N)=O,"Sprague-Dawley rats male, plasma","oral, dose not given, together with: posaconazole",reference: without posaconazole,AUC(0-inf) increase,94.3%
